# Experimental data from different studies.
# Lines come from different studies, so protocols differ. ± marks the error that the study gave.
# Spike glycoprotein: Spike glycoprotein (Severe acute respiratory syndrome coronavirus 2, UniProt P0DTC2)
# ACE2: Angiotensin-converting enzyme 2 (ACE2, Homo sapiens, UniProt Q9BYF1)
# tcdB glucosyltransferase domain: Toxin B, glucosyltransferase domain (tcdB, Clostridioides difficile, UniProt Q9EXR0)
# Sequence of UniProt P05177 (whole entry, looked up): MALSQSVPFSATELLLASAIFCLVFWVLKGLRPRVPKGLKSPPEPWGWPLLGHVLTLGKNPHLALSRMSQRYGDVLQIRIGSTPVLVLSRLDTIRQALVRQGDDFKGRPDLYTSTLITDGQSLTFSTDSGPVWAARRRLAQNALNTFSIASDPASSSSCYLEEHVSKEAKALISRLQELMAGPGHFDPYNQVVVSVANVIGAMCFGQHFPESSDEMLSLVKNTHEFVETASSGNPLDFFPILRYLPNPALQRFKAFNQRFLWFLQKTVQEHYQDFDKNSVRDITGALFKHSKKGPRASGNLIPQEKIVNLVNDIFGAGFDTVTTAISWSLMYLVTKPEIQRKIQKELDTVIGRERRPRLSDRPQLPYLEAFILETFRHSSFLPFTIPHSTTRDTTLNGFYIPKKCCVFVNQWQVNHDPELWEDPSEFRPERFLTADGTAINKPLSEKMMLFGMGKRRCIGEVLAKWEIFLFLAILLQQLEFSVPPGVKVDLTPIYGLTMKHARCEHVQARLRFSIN
Substance,tested on,test,system,setting,scale,quantity,value
CC[C@H](C)[C@H](NC(=O)[C@H](CC(C)C)NC(=O)[C@H](Cc1c[nH]c2ccccc12)NC(=O)[C@H](CCC(N)=O)NC(=O)[C@@H](NC(=O)[C@H](Cc1ccccc1)NC(=O)[C@H](C)NC(=O)[C@H](CCCCNC(=O)COCCOCCNC(=O)COCCOCCNC(=O)CC[C@H](NC(=O)CCCCCCCCCCCCCCCCCCC(=O)O)C(=O)O)NC(=O)[C@H](CCC(N)=O)NC(=O)[C@H](C)NC(=O)[C@@H](NC(=O)[C@H](CCCCN)NC(=O)[C@H](CC(=O)O)NC(=O)[C@H](CC(C)C)NC(=O)C(C)(C)NC(=O)[C@@H](NC(=O)[C@H](CO)NC(=O)[C@H](Cc1ccc(O)cc1)NC(=O)[C@H](CC(=O)O)NC(=O)[C@H](CO)NC(=O)[C@@H](NC(=O)[C@H](Cc1ccccc1)NC(=O)[C@@H](NC(=O)CNC(=O)[C@H](CCC(=O)O)NC(=O)C(C)(C)NC(=O)[C@@H](N)Cc1ccc(O)cc1)[C@@H](C)O)[C@@H](C)O)[C@@H](C)CC)[C@@H](C)CC)C(C)C)C(=O)N[C@@H](C)C(=O)NCC(=O)NCC(=O)N1CCC[C@H]1C(=O)N[C@@H](CO)C(=O)N[C@@H](CO)C(=O)NCC(=O)N[C@@H](C)C(=O)N1CCC[C@H]1C(=O)N1CCC[C@H]1C(=O)N1CCC[C@H]1C(=O)N[C@@H](CO)C(N)=O,,item: anti-drug antibodies,patients with type 2 diabetes,"5/5/10/15 mg escalating, titer increase ≥4-fold",,subjects with treatment-boosted ADA,0%
CC(C)C[C@H](NC(=O)[C@@H](NC(=O)[C@@H](N)Cc1c[nH]cn1)[C@@H](C)O)C(=O)N[C@@H](CCC(=O)O)C(=O)N[C@@H](Cc1c[nH]c2ccccc12)C(=O)N[C@@H](CCCNC(=N)N)C(=O)N[C@@H](CCCNC(=N)N)C(=O)N[C@@H](Cc1c[nH]c2ccccc12)C(=O)O,"Toxin B (tcdB, Clostridioides difficile, UniProt P18177)","enzyme activity, inhibitor",,,,Ki,125 µM
CC(C)=CCc1cc2c(cc1O)O[C@H](c1ccc(O)cc1)CC2=O,Spike glycoprotein,"binding, BLI",,,,Kd,43.8 µM
Nc1ncnc2c([C@@H]3N[C@H](CO)[C@@H](O)[C@H]3O)c[nH]c12,Sudan ebolavirus,viral replication,"HeLa, Boniface",12.5 µM,,inhibition,74.4%
C[C@H](CCC(=O)O)[C@H]1CC[C@H]2[C@@H]3CC[C@@H]4C[C@H](O)CC[C@]4(C)[C@H]3C[C@H](O)[C@]12C,ACE2,spike protein binding,,together with: SARS-CoV-2 spike protein,,AC50,18.9 µM
CNC(=O)[C@@H](NC(=O)[C@H](CC(C)C)[C@H](O)C(=O)NO)C(C)(C)C,Daboia russelii venom proteases (SVMP),"protease activity, inhibitor",KA population,"10 µM, together with: azocasein substrate",reference: venom alone,remaining activity,0%
CSCC[C@H](N)C(=O)N[C@@H](CC(=O)O)C(=O)N[C@H](C(=O)N[C@@H](CCC(N)=O)C(=O)N[C@@H](Cc1c[nH]c2ccccc12)C(=O)N[C@@H](CCCNC(=N)N)C(=O)N[C@@H](CCCNC(=N)N)C(=O)N[C@@H](Cc1c[nH]c2ccccc12)C(=O)O)[C@@H](C)O,tcdB glucosyltransferase domain,,,,,Ki,2700 µM
Cn1cnc(Cn2c(=O)[nH]/c(=N\c3cc4cn(C)nc4cc3Cl)n(Cc3cc(F)c(F)cc3F)c2=O)n1,,,"human, moderate renal impairment","oral, 375 mg, treatment-related dry mouth, Severe severity",,patients with adverse event,0%
c1ccc(CCN2CCCCC2)cc1,"sodium channel site 2, rat",binding,rat forebrain,together with: [3H]batrachotoxin 2 nM,,Ki,> 10 µM
CC(=O)O[C@@H]1[C@H](N)[C@@H](OP(=O)(O)O)[C@@]2(C(=O)O)CS[C@@](O)(C(N)=O)[C@@H]1O2,"DNA-directed RNA polymerase subunit beta' / DNA-directed RNA polymerase subunit beta (rpoC/rpoB, Escherichia coli, UniProt P0A8T7+P0A8V2, M932A)","binding to elongation complex, 6-MI fluorescence titration",β′M932A RNAP,riboside RNA 3′-end adenine,,Kd,0.65 ± 0.16 µM
CS(=O)(=O)C=CCNC(=O)c1ccc2c(c1)NC(=O)CC2,"Polyprotein P1234, nsP2 protease domain (Chikungunya virus, UniProt Q5XXP4)",time-dependent inhibitor,,,,Ki,15 ± 2 µM
CSCC[C@H](NC(=O)[C@@H](N)CCC(=O)O)C(=O)N[C@@H](Cc1c[nH]cn1)C(=O)N[C@@H](CCC(N)=O)C(=O)N[C@@H](Cc1c[nH]c2ccccc12)C(=O)N[C@@H](CCCNC(=N)N)C(=O)N[C@@H](CCCNC(=N)N)C(=O)N[C@@H](Cc1c[nH]c2ccccc12)C(=O)O,tcdB glucosyltransferase domain,,,,,Ki,2410 µM
CC[C@H](C)[C@H]1O[C@]2(CC[C@@H]1C)C[C@@H]1C[C@@H](C/C=C(\C)[C@@H](O[C@H]3C[C@H](OC)[C@@H](O[C@H]4C[C@H](OC)[C@@H](O)[C@H](C)O4)[C@H](C)O3)[C@@H](C)/C=C/C=C3\CO[C@@H]4[C@H](O)C(C)=C[C@@H](C(=O)O1)[C@]34O)O2,Spike glycoprotein,biolayer interferometry,,,,Kd,30.5 µM
NCCNCCNCCN,ACE2,,,,,AC50,6.7 µM
OC[C@H]1O[C@@H](Oc2c(O)cc(O)cc2/C=C/c2ccc(O)cc2)[C@H](O)[C@@H](O)[C@@H]1O,Spike glycoprotein,biolayer interferometry,,,,Kd,66.2 µM
Cc1ccc(-c2ccc3c(ccc4sc5c(c43)NC[C@@H](C)NC5=O)n2)cn1,"Replicase polyprotein 1ab, main protease (rep, Severe acute respiratory syndrome coronavirus 2, UniProt P0DTD1)","reporter gene (mKate2), inhibitor",,20 µM,,inhibition,-0.305%
abamectin,Spike glycoprotein,biolayer interferometry,,,,Kd,24.1 µM
Cn1cnc(Cn2c(=O)[nH]/c(=N\c3cc4cn(C)nc4cc3Cl)n(Cc3cc(F)c(F)cc3F)c2=O)n1,"Cytochrome P450 1A2 (CYP1A2, Homo sapiens, UniProt P05177)","enzyme activity, inhibitor",human liver microsomes,"0 min preincubation, pH 7.4, together with: phenacetin 90 µM",,IC50,> 100 µM

# Repeated from above:
Substance,tested on,test,system,setting,scale,quantity,value
CSCC[C@H](NC(=O)[C@@H](N)CCC(=O)O)C(=O)N[C@@H](Cc1c[nH]cn1)C(=O)N[C@@H](CCC(N)=O)C(=O)N[C@@H](Cc1c[nH]c2ccccc12)C(=O)N[C@@H](CCCNC(=N)N)C(=O)N[C@@H](CCCNC(=N)N)C(=O)N[C@@H](Cc1c[nH]c2ccccc12)C(=O)O,tcdB glucosyltransferase domain,,,,,Ki,2410 µM
OC[C@H]1O[C@@H](Oc2c(O)cc(O)cc2/C=C/c2ccc(O)cc2)[C@H](O)[C@@H](O)[C@@H]1O,Spike glycoprotein,biolayer interferometry,,,,Kd,66.2 µM
